Published values pooled from the literature.
A part holds a random share of what one study measured.

Block 1 — technique: protein binding microarray; molecule type: double-stranded DNA, one strand shown; matrix: in vitro; tested at: not given; baseline: not given; reading: higher = stronger binding; quantity: E-score
Target: Histone acetyltransferase KAT6A, both winged helices, GST fusion (KAT6A, Homo sapiens, UniProt Q92794, residues 1-181)
Notes: 8-mer, flanks averaged, mean of 2 arrays, mostly near background
Residues (chain): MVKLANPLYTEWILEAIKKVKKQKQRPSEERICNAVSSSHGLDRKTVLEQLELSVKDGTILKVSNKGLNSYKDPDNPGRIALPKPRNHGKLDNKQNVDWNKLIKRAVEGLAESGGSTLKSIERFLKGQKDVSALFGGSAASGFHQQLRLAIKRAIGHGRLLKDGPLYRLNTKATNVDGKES
GTCAGCAC: -0.00369
ACGGGATA: 0.163
GTATTAGA: -0.0768
ACCGCGAA: 0.282
GCGTTAAC: 0.289
CAGATCGC: 0.145
CTCGGACA: 0.183
ACTAGGCA: -0.132
AGGTGTAA: -0.152
AGCAATGA: -0.18
TCGCGCGA: 0.384
CTAGTCAG: -0.266
CACGAGAC: 0.00783
CCCGGAAG: 0.0797
GTACCGAA: -0.042
CGTCGCCC: 0.202
AATACATA: 0.0256
TGTCCAAA: -0.0522
AAGGCCGT: 0.249
CCCGAAGA: -0.022
CGGCAGCA: 0.173

Block 2 — technique: protein-binding microarray; molecule type: double-stranded DNA, one strand shown; matrix: in vitro; tested at: 940 nM top; notes: 60-bp whole probe; added: salmon DNA 0.4 mg/ml; baseline: random background probes; reading: higher = stronger binding; quantity: fitted relative affinity; constant ends, left off below: GCCTAGCAC … GTCTTGATTCGCTTGACGCTGCTG
Target: Interferon regulatory factor 5, full length, phosphomimetic (IRF5, Homo sapiens, UniProt Q13568-2, residues 1-514, S451D/S453D/S456D/S462D)
GTCGGTTCCGGTTTCGGGACGTGCTAG: 7.36 z-score
TTAGTTTTCGGGACTGGGTTAGTGCTA: 1.83 z-score
TCATTTTTGCTTACGATACTGTGCTAG: 0.996 z-score
TTAGATCTCTGACTGGATTAGTGCTAG: -0.277 z-score
GACGATATCGGGTATCGATACGTGCTA: 3.92 z-score
TTAGGTATCGACTTTGGGTTAGTGCTA: 4.68 z-score
GACGAACTGAGACTCGAGACGTGCTAG: -0.17 z-score
TTAGTACTGGGTATCGGTTAGTGCTAG: 3.6 z-score
CTTAGACTGTCCTGCTGGAGGTGCTAG: -0.597 z-score
TCATTTCTTTCAAATGAAACTGTGCTA: 0.768 z-score
TTAGATTTCGGGACGGGATTAGTGCTA: 0.777 z-score
TCACATTACAGCTATTTTACTGTGCTA: 0.86 z-score
GACGGTTTGCTACTGCTGACGTGCTAG: -0.412 z-score
TTAGATTTCGGGGTTCGATTAGTGCTA: 1.44 z-score
TCAAAAATAGAAACTCGTACTGTGCTA: 0.527 z-score
GACGAACGGAGTCTCGAGACGTGCTAG: 0.242 z-score
TTAGGTCTCGGCCTCGGTTAGTGCTAG: 2.4 z-score
GAGGAACTGAGTTTCGAGACGTGCTAG: 3.5 z-score
GACGGTATCGGGACTGGCGACGTGCTA: 3.44 z-score

Block 3 — technique: aptamer microarray, sandwich; molecule type: DNA with 2'F-ANA; matrix: in vitro; tested at: 200 nM; added: Cy3 exosite-II aptamer, 400 nM; reading: higher = stronger binding; quantity: mean fluorescence intensity; sequence: GGTTGGTGTGGTTGG
Target: Prothrombin, mature alpha-thrombin (F2, Homo sapiens, UniProt P00734)
Notes: whole 15-mer aptamer, many near background
2'F-ANA at 1 2 4 5 6 9 11 14: 54.1 a.u.
2'F-ANA at 1 3 4 6 9 11 12 15: 258 a.u.
2'F-ANA at 2 3 5 8 10 11 13 14: 49.3 a.u.
2'F-ANA at 2 6 8 10 11 12 14: 79.3 a.u.
2'F-ANA at 1 4 7 8 9 11 13 15: 88.6 a.u.
2'F-ANA at 1 2 3 5 6 8 9 14 15: 47.7 a.u.
2'F-ANA at 1 3 5 7 8 9 10 11 15: 50.8 a.u.
2'F-ANA at 3 6 7 12 13 15: 1190 a.u.
2'F-ANA at 1 3 5 6 7 11: 54.3 a.u.
2'F-ANA at 3 4 6 7 8 9 10 11 15: 215 a.u.
2'F-ANA at 4 8 9 13 15: 186 a.u.
2'F-ANA at 1 3 5 8 10 12 14 15: 50.4 a.u.
2'F-ANA at 1 2 3 4 5 6 9 10 11 12 13 14 15: 52.4 a.u.
2'F-ANA at 1 4 5 8 10 11 12 13 14: 47.6 a.u.
2'F-ANA at 1 3 4 7 9 12 14 15: 86.1 a.u.
2'F-ANA at 4 5 6 9 11 12: 104 a.u.
2'F-ANA at 3 5 6 7 9 10 13: 84.8 a.u.
2'F-ANA at 5 6 8 9 13 14: 48.2 a.u.
2'F-ANA at 2 3 4 5 6 7 8 9 10 11 12 14: 101 a.u.
2'F-ANA at 1 3 4 8 10 11 14: 53.3 a.u.
2'F-ANA at 1 2 3 6 7 9 11 13 15: 127 a.u.
2'F-ANA at 2 10 11 13 14: 87.2 a.u.
2'F-ANA at 2 3 4 5 7 9 15: 87.8 a.u.

Block 4 — technique: RNA Bind-n-Seq; molecule type: RNA; matrix: in vitro; tested at: 365 nM; baseline: no-protein control; reading: higher = stronger binding; quantity: RBNS enrichment (R)
Target: RNA binding protein fox-1 homolog 2, RRM domain, GST-SBP tag (RBFOX2, Homo sapiens, UniProt O43251-10, residues 100-194)
Notes: natural RNA segment, single round, ends assumed
Constant ends, left off below: GGGAGUUCUACAGUCCGACGAUC … UGGAAUUCUCGGGUGCCAA
Residues (chain): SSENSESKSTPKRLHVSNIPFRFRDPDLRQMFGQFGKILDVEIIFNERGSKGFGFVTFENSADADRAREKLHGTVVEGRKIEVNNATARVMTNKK
GUUGAAAUCAGGGGUGCCCAGCAGAGCCCAUCAUUCUCACUGUCUUUGAAACAAAGCUGUACGGUUUGAUCGAUGAACGUAUUUAAAGCAUUUCAUGCAAUGACAAAGUG: 0.426
CCUCCUCCCUCGCCUCCAGUGGAGGCUGAGCUGACCCUGGGCUGCUGGAGGCCAGACUGGGCUGUAGUUAGCUUUUCAUCCCUAAAGAAGGCUCCUUUCCCUAAGGAACC: 0.264
AGGUACAAGAGCAGAGCAGAGGAGCAAGCAAGGACAGCUGGGUUGAGUCUGCAGGUCCAGUGUGGUUUAGGUCAGUCAGGGGCCAGCUGGCCUCUGACUGCAUUGCUUUA: 0.485
CUAGAUAACAUGCUUUGUGUGUAUCUGUGUAGUUCUGUGUUGCAGACGGAUGAUAUAUAAUGAUAAUAGAAUAGCACAUUCAGACUUACUUCCUGCAUGAUAGGGAGAGA: 24.7
UGGGAAAGUAUGCACAAAAGAGACUCCCUACAUAGCUCAGAGACUACAGUGCCAAAAUGCCCCAGAGAGGCUCCAUUACUUCUGGAGCCUACAAAGCUGUUCCCUGAUGU: 0.363
ACUGGAGUUGCUGUUCCAGCUGGUCGCCCCUCACGGCACAGAGGGAACCUGAGAGCCAGAGACUUCUUGGGCCUUCCUGCCUGCCACCCCCUAGGGGCCAGGACAGGACC: 0.31
UGGCUUUUAACAUUAAUGCAAAUCAUGCAGAAUUUGAGUUAUAAAUUUAAAUAUAAAUUGACCAUUGAUGAUAUCCAGUUUUUCAUUUUUUACCUGUAUUGCAUUUUCCC: 0.863
AGGGAUGAUGCCUAGCAUUGGGGCAGCAUCUGCUCAGCACAUGGAAAGGGACCUGGUUCCAUCUCCCCUGGGCAGGAGUUGGUCCAGCCUCCUCCCAGACCCAGCUGGUG: 0.307

Excerpt of the above (block 2):
GACGAACTGAGACTCGAGACGTGCTAG: -0.17 z-score
TCATTTTTGCTTACGATACTGTGCTAG: 0.996 z-score
TCATTTCTTTCAAATGAAACTGTGCTA: 0.768 z-score
TCACATTACAGCTATTTTACTGTGCTA: 0.86 z-score
GACGAACGGAGTCTCGAGACGTGCTAG: 0.242 z-score
GACGATATCGGGTATCGATACGTGCTA: 3.92 z-score
TTAGGTCTCGGCCTCGGTTAGTGCTAG: 2.4 z-score
TTAGTTTTCGGGACTGGGTTAGTGCTA: 1.83 z-score
